Published values pooled from the literature.
Protocols differ between the studies behind these lines. Values joined by “and” are separate records of one study, mostly repeats; a detail may differ. ± gives the spread as reported.
Cell line: A549

| Compound | read-out | method | concentration | time | reference | endpoint | result |
| --- | --- | --- | --- | --- | --- | --- | --- |
| CC1OC(OC2CCC3(C)C(CCC4C3CCC3(C)C(C5=CC(=O)OC5)CCC43O)C2)C(O)C(O)C1OC1OC(CO)C(O)C(O)C1O (centres unmarked) | cell growth or viability | MTT | 5 µM | 24 h |  | inhibition | 75.7% |
| O=c1n(CCNCCOS(=O)(=O)c2ccccc2)c(=O)n(S(=O)(=O)c2ccccc2)c(=O)n1S(=O)(=O)c1ccccc1 | cell growth or viability | MTT | 12.5 µg/mL | 48 h |  | viability | 45.6% |
| CSCC[C@H](NC(=O)[C@@H](NC(=O)[C@H](CCC(N)=O)NC(=O)[C@H](CO)NC(=O)[C@@H](N)C(C)C)[C@@H](C)O)C(=O)N[C@@H](CCCNC(=N)N)C(=O)N[C@@H](CCC(N)=O)C(=O)N[C@H](C(=O)N[C@@H](C)C(=O)N[C@H](C(=O)N1CCC[C@H]1C(=O)N[C@@H](CC(C)C)C(=O)N[C@@H](CC(C)C)C(=O)N[C@@H](Cc1c[nH]c2ccccc12)C(=O)N[C@@H](Cc1ccccc1)C(=O)N[C@@H](Cc1c[nH]c2ccccc12)C(=O)N[C@H](C(=O)NCC(=O)N[C@@H](CO)C(=O)N[C@@H](CC(C)C)C(=O)NCCOCCOCCOCCOCCOCCOCCOCCOCCOCCOCCOCCOCCC(=O)N[C@@H](CS)C(N)=O)[C@@H](C)O)C(C)C)[C@@H](C)O | phage binding | phage binding |  |  | targeting over control phage | selectivity ratio | 12 ± 2.8 |
| Cc1ccccc1/C=C/C(=O)N[C@H]1COC(=O)[C@H](CC(=O)O)NC(=O)[C@H]([C@@H](O)C(=O)c2ccccc2N)NC(=O)[C@@H](Cc2ccccc2)NC(=O)[C@@H](NC(=O)[C@@H](Cc2ccccc2)NC(=O)CN)[C@@H](C)OC1=O |  |  |  |  |  | IC50 | > 20000 nM |
| CC(C)(C)C(=O)OCOP(=O)(OCOC(=O)C(C)(C)C)C1CCCN(O)C1=O (centres unmarked) |  |  |  |  |  | Log10LC50 | > -4 log M |
| C#CCCCC[C@H](C)C[C@@H](C)C(=O)N[C@@H](C)C(=O)N1CCC[C@H]1C(=O)N[C@H](C(=O)N[C@H](C(=O)N[C@H](C(=O)N[C@@H](Cc1ccccc1)C(=O)N1CCC[C@H]1C(=O)N1CCC[C@H]1C(C)=O)C(C)C)C(C)C)C(C)C | cell growth or viability | SRB |  |  |  | IC50 | 2230 nM and 2190 nM and 2220 nM |
| Cc1c(Cl)c(=O)oc2cc(OCCCCCC[Se]C#N)ccc12 | cell growth or viability | SRB |  |  |  | GI50 | 20 µM |
| CC(C)Cc1ccc(C(C)C(=O)[O-])cc1.CC(C)Cc1ccc(C(C)C(=O)[O-])cc1.O.[Cu+2].c1ccncc1.c1ccncc1 (centres unmarked) |  | MTT |  | 48 h |  | total growth inhibition (TGI) | 40 ± 2.8 µM |
| O=C1C=CC(=O)c2ccccc21 | cell growth or viability | MTT |  |  |  | IC50 | 53500 nM |
| CC(=O)O[C@H]1C[C@H](O[C@H]2[C@@H](O)C[C@H](O[C@H]3[C@@H](O)C[C@H](O[C@H]4CC[C@@]5(C)[C@H](CC[C@@H]6[C@@H]5CC[C@]5(C)[C@@H](C7=CC(=O)OC7)[C@@H](O)C[C@]65O)C4)O[C@@H]3C)O[C@@H]2C)O[C@H](C)[C@H]1O[C@@H]1O[C@H](CO)[C@@H](O)[C@H](O)[C@H]1O | cell growth or viability | MTT | 5 µM | 24 h |  | inhibition | 73.8% |
| Cc1ccc(C(C)C)cc1.F[P-](F)(F)(F)(F)F.[Cl][Os+]1[N]2C=CC=c3ccc4c(c32)[N]1C=CC=4 | cell growth or viability | MTT |  |  |  | IC50 | 82800 nM |

Some of these lines once more:
| Compound | read-out | method | concentration | time | reference | endpoint | result |
| --- | --- | --- | --- | --- | --- | --- | --- |
| C#CCCCC[C@H](C)C[C@@H](C)C(=O)N[C@@H](C)C(=O)N1CCC[C@H]1C(=O)N[C@H](C(=O)N[C@H](C(=O)N[C@H](C(=O)N[C@@H](Cc1ccccc1)C(=O)N1CCC[C@H]1C(=O)N1CCC[C@H]1C(C)=O)C(C)C)C(C)C)C(C)C | cell growth or viability | SRB |  |  |  | IC50 | 2230 nM and 2190 nM and 2220 nM |
